Experimental data collected from several papers.
Lines come from different studies, so protocols differ.

SMILES = C=CC(=O)NC1CCN(c2ncc3ncnc(Nc4ccc(Oc5ccc6c(c5)ncn6C)c(C)c4)c3n2)CC1; system = healthy male volunteers; setting = oral, 60 mg, 2 weeks; measurement = subjects with adverse events; result = 88%
SMILES = O=C(O)CCC(=O)O.[2H]C([2H])([2H])Oc1cc(C)c2[nH]ccc2c1CN1CC[C@@H](C2CC2)C[C@H]1c1ccc(C(=O)O)cc1; system = healthy Chinese subjects; setting = 100 mg, single ascending dose; measurement = subjects with any TEAE; result = 33.3%
SMILES = C[C@H]1CNCCCN1S(=O)(=O)c1cccc2cncc(F)c12; system = healthy adult men; setting = ocular, 1 drop per eye twice daily, 8 days, adverse event; measurement = subjects with any adverse event; result = 100%
SMILES = O=C(Nc1cnccc1Cl)N1CCN(Cc2ccc3c(c2)OC(F)(F)O3)CC1; assay = multiple ascending dose; system = young women; setting = 100 mg, at least 1 treatment-emergent event; measurement = subjects with adverse events; result = 100%
SMILES = NCCONC(=O)[C@@H]1CC[C@@H]2CN1C(=O)N2OS(=O)(=O)O; system = healthy Chinese male subjects; setting = intravenous, 1 g; measurement = subjects with TEAEs; result = 62.5%
SMILES = CC#CC(=O)N[C@H]1CCCN(c2c(F)cc(C(N)=O)c3[nH]c(C)c(C)c23)C1; system = healthy volunteers; setting = oral, 0.3 mg once daily, 14 days; measurement = subjects with adverse events; result = 33.3%
SMILES = COc1c(N2C[C@@H]3CCCN[C@@H]3C2)c(F)cc2c(=O)c(C(=O)O)cn(C3CC3)c12; system = healthy volunteers; setting = 400 mg; measurement = subjects with decreased appetite; result = 0%
SMILES = CC(C)n1c(Nc2cccnc2)nc2cnc(Nc3ccc(N4CCN(C)CC4)cc3)nc21; assay = refers to: gum pain; system = healthy male subjects; setting = oral, 100 mg, study, with: itraconazole; measurement = subjects with adverse event; result = 7.1%
SMILES = C[C@H]1O[C@@H](O[C@H]2[C@@H](O)C[C@H](O[C@H]3[C@@H](O)C[C@H](O[C@H]4CC[C@@]5(C)[C@H](CC[C@@H]6[C@@H]5C[C@@H](O)[C@]5(C)[C@@H](C7=CC(=O)OC7)CC[C@]65O)C4)O[C@@H]3C)O[C@@H]2C)C[C@H](O)[C@@H]1O; assay = refers to: oropharyngeal pain; system = healthy men; setting = oral, dose not given, 8 days, treatment-emergent, crossover trial; measurement = subjects with adverse event; result = 0%
SMILES = Cc1c(Cl)c(C)[n+]([O-])c(Cl)c1-c1noc(-c2cc(O)c(O)c([N+](=O)[O-])c2)n1; system = healthy Caucasian subjects; setting = oral, 25 mg; measurement = subjects with any serious TEAE; result = 0%
SMILES = Cc1nc2ccc(F)cc2n1-c1nc(N)c(F)c(Nc2ccc(C(F)(F)F)cc2)n1; system = leiomyosarcoma patients; setting = dose not given, with: dacarbazine; measurement = subjects with related TEAE; result = 96.6%
SMILES = Cn1cc(Nc2nc(N)nc(-c3cccc(-n4ccc5cc(C6CC6)cc(F)c5c4=O)c3CO)n2)cn1; system = healthy subjects; setting = oral, 300 mg tablet, fed high-fat breakfast; measurement = subjects with nausea; result = 1%
SMILES = CC[C@H](C)[C@H](NC(=O)[C@H](Cc1ccccc1)NC(=O)[C@H](CCC(=O)O)NC(=O)[C@H](CCCCNC(=O)COCCOCCNC(=O)COCCOCCNC(=O)CC[C@H](NC(=O)CCCCCCCCCCCCCCCCC(=O)O)C(=O)O)NC(=O)[C@H](C)NC(=O)[C@H](C)NC(=O)[C@H](CCC(N)=O)NC(=O)CNC(=O)[C@H](CCC(=O)O)NC(=O)[C@H](CC(C)C)NC(=O)[C@H](Cc1ccc(O)cc1)NC(=O)[C@H](CO)NC(=O)[C@H](CO)NC(=O)[C@@H](NC(=O)[C@H](CC(=O)O)NC(=O)[C@H](CO)NC(=O)[C@@H](NC(=O)[C@H](Cc1ccccc1)NC(=O)[C@@H](NC(=O)CNC(=O)[C@H](CCC(=O)O)NC(=O)C(C)(C)NC(=O)[C@@H](N)Cc1cnc[nH]1)[C@@H](C)O)[C@@H](C)O)C(C)C)C(=O)N[C@@H](C)C(=O)N[C@@H](Cc1c[nH]c2ccccc12)C(=O)N[C@@H](CC(C)C)C(=O)N[C@H](C(=O)N[C@@H](CCCNC(=N)N)C(=O)NCC(=O)N[C@@H](CCCNC(=N)N)C(=O)NCC(=O)O)C(C)C; system = type 2 diabetes patients; setting = dose not given; measurement = subjects with upper abdominal pain; result = 13.3%
SMILES = CC[C@H](C)[C@H](NC(=O)[C@H](Cc1ccccc1)NC(=O)[C@H](CCC(=O)O)NC(=O)[C@H](CCCCNC(=O)COCCOCCNC(=O)COCCOCCNC(=O)CC[C@H](NC(=O)CCCCCCCCCCCCCCCCC(=O)O)C(=O)O)NC(=O)[C@H](C)NC(=O)[C@H](C)NC(=O)[C@H](CCC(N)=O)NC(=O)CNC(=O)[C@H](CCC(=O)O)NC(=O)[C@H](CC(C)C)NC(=O)[C@H](Cc1ccc(O)cc1)NC(=O)[C@H](CO)NC(=O)[C@H](CO)NC(=O)[C@@H](NC(=O)[C@H](CC(=O)O)NC(=O)[C@H](CO)NC(=O)[C@@H](NC(=O)[C@H](Cc1ccccc1)NC(=O)[C@@H](NC(=O)CNC(=O)[C@H](CCC(=O)O)NC(=O)C(C)(C)NC(=O)[C@@H](N)Cc1cnc[nH]1)[C@@H](C)O)[C@@H](C)O)C(C)C)C(=O)N[C@@H](C)C(=O)N[C@@H](Cc1c[nH]c2ccccc12)C(=O)N[C@@H](CC(C)C)C(=O)N[C@H](C(=O)N[C@@H](CCCNC(=N)N)C(=O)NCC(=O)N[C@@H](CCCNC(=N)N)C(=O)NCC(=O)O)C(C)C; system = Caucasian subjects; setting = 1.0 mg, metabolism and nutrition disorders; measurement = subjects with adverse events; result = 37.5%

Some of these lines once more:
SMILES = O=C(Nc1cnccc1Cl)N1CCN(Cc2ccc3c(c2)OC(F)(F)O3)CC1; assay = multiple ascending dose; system = young women; setting = 100 mg, at least 1 treatment-emergent event; measurement = subjects with adverse events; result = 100%
SMILES = NCCONC(=O)[C@@H]1CC[C@@H]2CN1C(=O)N2OS(=O)(=O)O; system = healthy Chinese male subjects; setting = intravenous, 1 g; measurement = subjects with TEAEs; result = 62.5%
